Measured values pooled from the literature.
Numbered parts are unrelated; each lists some results of a single study. Several values in a cell are separate wells, animals, samples, runs or records.
UniProt Q86UE8, sequence (whole entry, looked up): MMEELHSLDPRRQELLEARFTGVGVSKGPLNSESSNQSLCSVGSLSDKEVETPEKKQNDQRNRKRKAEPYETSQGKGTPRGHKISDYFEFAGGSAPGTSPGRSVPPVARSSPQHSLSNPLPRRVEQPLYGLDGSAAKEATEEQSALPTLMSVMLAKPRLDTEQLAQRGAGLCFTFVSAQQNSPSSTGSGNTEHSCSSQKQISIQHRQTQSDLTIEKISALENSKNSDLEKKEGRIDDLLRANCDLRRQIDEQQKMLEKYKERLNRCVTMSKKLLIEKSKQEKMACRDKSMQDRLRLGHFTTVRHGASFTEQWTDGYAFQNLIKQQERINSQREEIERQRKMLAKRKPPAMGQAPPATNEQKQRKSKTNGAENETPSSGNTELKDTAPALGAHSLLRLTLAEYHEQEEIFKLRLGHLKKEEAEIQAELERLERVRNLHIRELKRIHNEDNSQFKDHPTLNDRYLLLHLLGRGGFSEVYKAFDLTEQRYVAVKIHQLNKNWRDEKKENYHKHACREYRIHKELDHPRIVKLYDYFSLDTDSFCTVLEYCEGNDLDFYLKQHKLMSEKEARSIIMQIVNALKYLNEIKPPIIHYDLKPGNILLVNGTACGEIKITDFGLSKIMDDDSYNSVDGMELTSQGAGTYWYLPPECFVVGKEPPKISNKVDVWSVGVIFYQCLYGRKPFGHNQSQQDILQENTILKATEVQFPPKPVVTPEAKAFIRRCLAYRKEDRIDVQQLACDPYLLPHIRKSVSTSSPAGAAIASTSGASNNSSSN
UniProt Q8NE63, sequence (whole entry, looked up): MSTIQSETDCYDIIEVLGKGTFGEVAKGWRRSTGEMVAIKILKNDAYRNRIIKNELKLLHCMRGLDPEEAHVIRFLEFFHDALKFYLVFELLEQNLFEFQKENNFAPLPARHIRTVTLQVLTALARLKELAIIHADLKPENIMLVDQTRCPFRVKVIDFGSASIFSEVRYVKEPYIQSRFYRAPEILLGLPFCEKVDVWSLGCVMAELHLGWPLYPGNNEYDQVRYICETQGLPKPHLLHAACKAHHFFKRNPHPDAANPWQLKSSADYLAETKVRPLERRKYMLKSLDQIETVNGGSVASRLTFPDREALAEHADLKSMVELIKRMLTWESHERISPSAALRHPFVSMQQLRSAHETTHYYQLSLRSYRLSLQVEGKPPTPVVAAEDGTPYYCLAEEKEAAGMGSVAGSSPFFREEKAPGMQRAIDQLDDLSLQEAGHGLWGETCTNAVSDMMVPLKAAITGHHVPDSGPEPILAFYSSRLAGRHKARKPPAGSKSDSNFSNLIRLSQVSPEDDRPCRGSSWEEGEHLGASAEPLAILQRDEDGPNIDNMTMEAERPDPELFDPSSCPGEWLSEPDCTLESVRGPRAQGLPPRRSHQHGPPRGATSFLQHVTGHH

Sample 1
Target: DNA polymerase theta, ATPase domain (POLQ, Homo sapiens, UniProt O75417)
UniProt O75417, sequence (whole entry, unmodified, looked up): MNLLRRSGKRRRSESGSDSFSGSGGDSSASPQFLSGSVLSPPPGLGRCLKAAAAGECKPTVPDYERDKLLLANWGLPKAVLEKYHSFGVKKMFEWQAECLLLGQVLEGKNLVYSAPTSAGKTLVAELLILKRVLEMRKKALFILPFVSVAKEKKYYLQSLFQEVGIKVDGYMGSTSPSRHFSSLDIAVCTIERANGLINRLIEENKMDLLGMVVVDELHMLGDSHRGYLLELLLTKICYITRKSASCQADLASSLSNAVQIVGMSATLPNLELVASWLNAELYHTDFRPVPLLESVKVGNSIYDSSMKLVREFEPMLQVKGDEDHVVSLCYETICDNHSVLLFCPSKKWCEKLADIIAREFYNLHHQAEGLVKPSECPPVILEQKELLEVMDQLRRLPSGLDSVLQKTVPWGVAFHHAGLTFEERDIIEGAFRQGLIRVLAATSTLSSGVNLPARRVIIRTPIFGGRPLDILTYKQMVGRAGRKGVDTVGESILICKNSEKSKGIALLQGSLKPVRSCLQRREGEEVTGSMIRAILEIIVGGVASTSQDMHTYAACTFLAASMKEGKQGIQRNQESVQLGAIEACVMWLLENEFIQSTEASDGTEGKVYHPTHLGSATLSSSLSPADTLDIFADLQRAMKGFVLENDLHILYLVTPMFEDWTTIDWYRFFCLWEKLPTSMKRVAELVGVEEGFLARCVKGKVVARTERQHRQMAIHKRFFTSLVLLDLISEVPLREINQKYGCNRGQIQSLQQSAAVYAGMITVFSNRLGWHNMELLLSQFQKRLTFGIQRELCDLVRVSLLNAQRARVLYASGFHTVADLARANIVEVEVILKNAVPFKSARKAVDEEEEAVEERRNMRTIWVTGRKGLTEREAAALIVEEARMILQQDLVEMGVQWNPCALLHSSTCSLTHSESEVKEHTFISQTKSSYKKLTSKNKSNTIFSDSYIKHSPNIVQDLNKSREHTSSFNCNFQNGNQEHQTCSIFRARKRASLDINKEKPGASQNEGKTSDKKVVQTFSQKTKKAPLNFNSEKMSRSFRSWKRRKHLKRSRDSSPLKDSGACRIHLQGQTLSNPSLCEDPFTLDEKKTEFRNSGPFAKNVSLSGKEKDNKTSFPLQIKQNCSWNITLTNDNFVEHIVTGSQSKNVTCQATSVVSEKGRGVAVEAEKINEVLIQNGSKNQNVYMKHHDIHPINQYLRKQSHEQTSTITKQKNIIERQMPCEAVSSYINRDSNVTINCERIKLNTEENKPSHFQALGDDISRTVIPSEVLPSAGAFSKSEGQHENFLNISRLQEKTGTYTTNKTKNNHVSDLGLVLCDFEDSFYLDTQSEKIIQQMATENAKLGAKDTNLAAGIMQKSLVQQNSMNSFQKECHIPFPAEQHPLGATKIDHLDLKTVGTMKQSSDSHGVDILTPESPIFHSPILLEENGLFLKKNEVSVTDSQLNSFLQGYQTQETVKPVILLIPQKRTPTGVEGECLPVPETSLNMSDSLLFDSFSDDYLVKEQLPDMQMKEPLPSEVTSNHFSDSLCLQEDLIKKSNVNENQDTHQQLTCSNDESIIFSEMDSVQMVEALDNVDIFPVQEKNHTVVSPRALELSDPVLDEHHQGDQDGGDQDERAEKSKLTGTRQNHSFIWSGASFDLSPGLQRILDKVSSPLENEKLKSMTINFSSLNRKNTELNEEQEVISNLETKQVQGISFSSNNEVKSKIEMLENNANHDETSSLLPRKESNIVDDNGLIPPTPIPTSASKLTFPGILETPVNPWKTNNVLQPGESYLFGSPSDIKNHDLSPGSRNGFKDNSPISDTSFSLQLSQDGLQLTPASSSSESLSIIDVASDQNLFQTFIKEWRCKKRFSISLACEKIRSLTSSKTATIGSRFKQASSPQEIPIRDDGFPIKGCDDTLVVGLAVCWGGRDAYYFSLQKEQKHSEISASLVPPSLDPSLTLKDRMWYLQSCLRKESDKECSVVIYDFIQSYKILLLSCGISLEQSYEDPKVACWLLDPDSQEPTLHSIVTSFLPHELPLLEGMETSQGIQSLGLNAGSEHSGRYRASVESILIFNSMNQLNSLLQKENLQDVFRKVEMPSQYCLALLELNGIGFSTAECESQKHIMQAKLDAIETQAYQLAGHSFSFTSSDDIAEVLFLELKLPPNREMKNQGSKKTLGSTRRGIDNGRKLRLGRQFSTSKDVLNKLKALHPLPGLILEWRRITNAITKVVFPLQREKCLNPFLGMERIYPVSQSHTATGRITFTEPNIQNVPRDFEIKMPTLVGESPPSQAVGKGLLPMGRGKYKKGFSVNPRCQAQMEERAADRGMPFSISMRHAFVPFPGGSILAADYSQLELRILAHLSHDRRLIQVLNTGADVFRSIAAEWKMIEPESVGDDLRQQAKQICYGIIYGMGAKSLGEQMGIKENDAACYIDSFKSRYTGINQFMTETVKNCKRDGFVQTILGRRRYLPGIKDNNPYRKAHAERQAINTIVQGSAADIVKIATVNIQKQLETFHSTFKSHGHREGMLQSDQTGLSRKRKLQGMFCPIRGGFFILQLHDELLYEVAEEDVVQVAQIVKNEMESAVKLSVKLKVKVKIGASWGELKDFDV
Effect on: enzyme activity
Mode: inhibitor
Tested at: 77 µM
Relative to: untreated
SMILES | remaining activity
CCOC(=O)C1=C(C)NC(C)=C(C(=O)OCC)C1c1c(F)c(F)c(F)c(F)c1F | 106%
CN1CCC(=C2c3ccccc3CCc3sccc32)CC1 | 101% and 102%
Clc1ccc2c(c1)N=C(N1CCNCC1)c1ccccc1N2 | 109%
O=C(O)c1ccc(N2C(=O)/C(=C\c3ccc(-c4ccc([N+](=O)[O-])cc4)o3)C=C2c2ccccc2)cc1 | 81.3%

Sample 2
Structure (SMILES): CS(=O)(=O)N1CCCC(NC(=O)[C@H](CCC2CCCCC2)NC(=O)c2ccc(CNc3ncnc4c3nnn4-c3ccccc3)cc2)C1 (some centres unmarked)
Effect on: cell-free assay
Method: competition with immobilised ligand
Tested at: 0.1 µM
target | remaining binding
Serine/threonine-protein kinase PLK3 (PLK3, Homo sapiens, UniProt Q9H4B4) | 100%
Serine/threonine-protein kinase pim-3 (PIM3, Homo sapiens, UniProt Q86V86) | 100%
Transient receptor potential cation channel subfamily M member 6 (TRPM6, Homo sapiens, UniProt Q9BX84) | 96%
Homeodomain-interacting protein kinase 4 (HIPK4, Homo sapiens, UniProt Q8NE63) | 100%

Sample 3
Compound: CN1CCN(C(=O)c2ccc(NC(=O)Nc3ccc(N(C)c4ccnc(Nc5ccc(CS(C)(=O)=O)cc5)n4)cc3)cc2)CC1
Effect on: binding
Tested at: 1 µM
target | test | remaining binding
Mitogen-activated protein kinase 12 (MAPK12, Homo sapiens, UniProt P53778) | competition with immobilised ligand | 100%
MAP kinase-activated protein kinase 5 (MAPKAPK5, Homo sapiens, UniProt Q8IW41) | – | 84%
Cyclin-dependent kinase-like 3 (CDKL3, Homo sapiens, UniProt Q8IVW4) | competition with immobilised ligand | 72%
Serine/threonine-protein kinase tousled-like 2 (TLK2, Homo sapiens, UniProt Q86UE8) | – | 100%

Sample 4
Target: Calcium/calmodulin-dependent protein kinase type IV (CAMK4, Homo sapiens, UniProt Q16566)
UniProt Q16566, sequence (whole entry, looked up): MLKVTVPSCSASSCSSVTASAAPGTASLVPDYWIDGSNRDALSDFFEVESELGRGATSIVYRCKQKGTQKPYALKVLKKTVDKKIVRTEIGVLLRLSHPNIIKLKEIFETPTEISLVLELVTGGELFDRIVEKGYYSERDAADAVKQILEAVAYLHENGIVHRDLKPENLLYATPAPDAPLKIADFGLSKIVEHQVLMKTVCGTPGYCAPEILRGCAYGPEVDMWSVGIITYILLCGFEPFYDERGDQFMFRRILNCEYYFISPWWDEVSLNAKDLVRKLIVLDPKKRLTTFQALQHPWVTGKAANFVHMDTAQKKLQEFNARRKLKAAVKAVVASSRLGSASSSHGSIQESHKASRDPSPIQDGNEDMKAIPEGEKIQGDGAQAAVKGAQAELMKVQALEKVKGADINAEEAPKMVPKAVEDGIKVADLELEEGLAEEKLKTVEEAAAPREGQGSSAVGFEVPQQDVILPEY
Effect on: enzyme activity
Mode: inhibitor
Tested at: 0.5 µM
Relative to: control
Compound | remaining activity [%]
CN(C)c1ccc(C=C2C(=O)Nc3ccccc32)cc1 | 97.8
Cc1nc(-c2ccccc2)c(-c2ccncc2)o1 | 97.2
O=C1NC(=O)C(c2cn(CCCO)c3ncccc23)=C1c1cnccn1 | 95.6
Nc1[nH]nc2nc3ccccc3nc12 | 104
O=C1NC(=O)C(c2cn(CCCn3ccnc3)c3ccccc23)=C1Nc1ccccc1 | 103
CO[C@H]1C[C@@H]2CC[C@@H](C)[C@@](O)(O2)C(=O)C(=O)N2CCCC[C@H]2C(=O)O[C@H]([C@H](C)C[C@@H]2CC[C@@H](O)[C@H](OC)C2)CC(=O)[C@H](C)/C=C(\C)[C@@H](O)[C@@H](OC)C(=O)[C@H](C)C[C@H](C)/C=C/C=C/C=C/1C | 99.1
NCCNc1ncc(C(N)=O)c(Nc2cccc(C(F)(F)F)c2)n1 | 94.2
CC(C)[C@H](CO)Nc1nc(Nc2cc(N)cc(Cl)c2)c2ncn(C(C)C)c2n1 | 97.4
O=C(Nc1cccc(Nc2cc(Nc3cccc(C(F)(F)F)c3)ncn2)c1)C1CC1 | 98.5
COc1cc2nccc(Oc3ccc(NC(=S)NC(=O)c4ccccc4C)cc3)c2cc1OC | 103
Nc1ccc2ncnc(NCCc3ccc(Oc4ccccc4)cc3)c2c1 | 98.9
Cn1c2ccccc2c2c3c(c4c5ccccc5n(CCC#N)c4c21)CNC3=O | 88.1
O=S(=O)(c1cccc2cnccc12)N1CCCNCC1 | 92.9
Nc1ncnc2n[nH]c(Nc3ccc(F)cc3)c12 | 103

Sample 5
Organism: Sarcocystis neurona
Effect on: parasite growth
Tested at: 10 µM
Time: 96 h
Notes: second screen
Relative to: untreated
Compound | log2 fold change
Cc1ccc(-c2cc(C(F)(F)F)nn2-c2ccc(S(N)(=O)=O)cc2)cc1 | 0.65
CNCC[C@@H](Oc1ccccc1C)c1ccccc1 | 0.43
Cc1cn([C@H]2C[C@H](N=[N+]=[N-])[C@@H](CO)O2)c(=O)[nH]c1=O | 0.35
Cc1[nH]cnc1CN1CCc2c(c3ccccc3n2C)C1=O | 0.62
C#C[C@]1(O)CC[C@H]2[C@@H]3CCC4=Cc5oncc5C[C@]4(C)[C@H]3CC[C@@]21C | -0.22
CCCCC[C@H](O)/C=C/[C@H]1[C@H](O)CC(=O)[C@@H]1CCCCCCC(=O)O | 0.59

Repeated from above (sample 4):
Compound | remaining activity [%]
Cn1c2ccccc2c2c3c(c4c5ccccc5n(CCC#N)c4c21)CNC3=O | 88.1
CO[C@H]1C[C@@H]2CC[C@@H](C)[C@@](O)(O2)C(=O)C(=O)N2CCCC[C@H]2C(=O)O[C@H]([C@H](C)C[C@@H]2CC[C@@H](O)[C@H](OC)C2)CC(=O)[C@H](C)/C=C(\C)[C@@H](O)[C@@H](OC)C(=O)[C@H](C)C[C@H](C)/C=C/C=C/C=C/1C | 99.1
CC(C)[C@H](CO)Nc1nc(Nc2cc(N)cc(Cl)c2)c2ncn(C(C)C)c2n1 | 97.4
